Published values collected from several papers.
A part holds a random share of what one study measured.

Sample 1 — technique: RNA Bind-n-Seq; molecule type: RNA; medium: in vitro; tested at: not given; relative to: input RNA pool; reading: higher = stronger binding
Target: RING finger protein unkempt homolog, zinc fingers 1-6, GST-SBP tag (UNK, Homo sapiens, UniProt Q9C0B0, residues 30-357)
Sequence of UniProt Q9C0B0 (30-357, looked up): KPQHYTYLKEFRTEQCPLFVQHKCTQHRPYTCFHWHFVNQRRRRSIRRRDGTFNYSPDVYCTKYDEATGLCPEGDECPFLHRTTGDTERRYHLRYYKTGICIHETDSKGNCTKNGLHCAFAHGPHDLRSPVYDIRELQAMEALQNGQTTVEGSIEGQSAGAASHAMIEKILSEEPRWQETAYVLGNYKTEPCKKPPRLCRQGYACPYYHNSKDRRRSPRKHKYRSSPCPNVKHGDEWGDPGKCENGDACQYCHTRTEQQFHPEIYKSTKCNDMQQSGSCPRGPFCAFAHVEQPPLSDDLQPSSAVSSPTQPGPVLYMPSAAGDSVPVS
Setting: RNA with constant flanks, human and mouse sites, ends assumed
Constant ends, left off below: GGGAGUUCUACAGUCCGACGAUC … CAACAGAGGAUUGAGCAUCA
Oligonucleotide | bound/input enrichment [ratio]
AAAGUGAUGACUAUGUUUGUCCAACGACAGGUAUUUUCGGAGAGCAAAGAUGAGAUUGCGUUAGUCCUCUAUGGCACAGAUGGCACUGAUAAUGCCCUUGCUGGCAAGGACCAGUAUCAG | 0.117
UAUAGAGCCACCAUGAUUCUUACAGUUGGUGGUAAGGCCUUUGGAAUGUUUGAAGGAACAGCAUAUGCCAUAUAUGAGCUGGCUGUGGCUUCAUUUCCCAAGAAGCAGGAGUGACUUCAG | 0.187
AAAGAAUGGAUAGAAUGUGCACAUGGAAUCGGUUAUACUCGGGCAGAGAAAGAGUGCAAGAUAGAAUAUGAUGAUUUCGUAGAGUGUUUGCUUCGGCAGAAAACGAUGAGACGUGCAGGU | 1.54
UUAUAUCUUUCUGUCAUUCGAAAGAUACCAGCCUUGACUGAAAAUGACCCUGAAACUUGGAUAGUUUGUAAUUUUUCUGUGGAUCAUGACAGUGCUCCUCUAAACAACCGAUGUGUCCGU | 0.299
CUGACUAAUGCUUUUGGAAGUUUUGAUCUUCUUGACAACACAGACAUCCAUCUGCACUUCCCAGCUGGAGCUGUCACAAAAGAUGGACCAUCUGCUGGUGUUACCAUAGUAACUUGUCUC | 0.115
GAAUAUAGUCACUCAAUUAAAAUUAUUUAGAUAAAAUUAUUGUUUAUGUUUUCUUUCAAGCAAUCUAUCCUAUUUUUAUCCAUUUGCAAAUGCCAGUUUUGUGUGGUUUCUUAGCAUAUC | 19.5
CAUAGAAUUUAUACUGCUGAGCUGGCACACAUUUACUUUAGGAAACCUAACUGGAAAUGUUAGGUGAGGAACAGAACUGGAGAAUUCAAAAGUGACAUUUUUGUAGCCAACCUCAGUAUA | 6.27
CCAUCCCCCCUGCCGUCUCAUACACCAAGAGGCCUCAGGCCAACAGCGUGGAGAGUGAACAGAAGGAGGAGUGGGGCAAAGACACAGCCCGCAGACUUGGCAGCACCACAGUGGGAUCAA | 0.109
CUAACCUUCCUUCGAAUUCGCUCCAAGAAAAAUGAAAUUAUGGUGGCACCAGAUAAAGACUAUUUCCUGAUUGUGAUCCAGAAUCCAACUGAAUAAGCCACUGUCUGGGCUUCCUGUGUC | 0.174
ACUACCCACAAAGAAGAAAAGAGUUUACUAGAACUAGAAGUUGAUUUGGAUAACUUGGAAUUAGAGGAUAUUGACACAACAGACAUUAAUCUGGAUGAAGAUAUUCUGGAUGAUUAAAGU | 0.735
AUCUCCUCCAUCCUGGGCACCUGGCUGGACCAAUACUCAGAGGAUUUCUGUCAACCUCCGGACUUUCCCUGCCUCAAGCAGCUGGUGGCUUAUGUACAGCUCAACAUGCCUGGCUCAGAU | 0.123

Sample 2 — technique: protein-binding microarray; molecule type: double-stranded DNA, one strand shown; medium: in vitro; tested at: 940 nM top; setting: 60-bp whole probe; with: salmon DNA 0.4 mg/ml; relative to: random background probes; reading: higher = stronger binding; constant ends, left off below: GCCTAGCAC … GTCTTGATTCGCTTGACGCTGCTG
Target: Interferon regulatory factor 5, full length, phosphomimetic (IRF5, Homo sapiens, UniProt Q13568-2, residues 1-514, S451D/S453D/S456D/S462D)
Oligonucleotide | fitted relative affinity [z-score]
GACAGTTTCCTTCTCCTGACGTGCTAG | 2.9
TCATGCATCTATCTTAAACTGTGCTAG | 0.527
TTAGAACTGAGTATCGCTTAGTGCTAG | 1.19
TGGGTGACTCTTACTCATTAGTGCTAG | -0.0749
GAAGATTTCAGTCTCGAGACGTGCTAG | 1.6
GACGGTTTACTTTTCCTGACGTGCTAG | 0.518
GACGGTTCCGGTTTCGCGACGTGCTAG | 3.89
TTAGGTAGCGGTATCGGTTAGTGCTAG | 4.55
CCTCCTCCCTGTTTCCATCTGTGCTAG | 0.916
GTCACTCTCAGAATCTCTCAGTGCTAG | 1.68
TCACTTATGATATATATAACTGTGCTA | 0.728
TCATTTTCATTGTTTTTCACTGTGCTA | 2.3
TTCTTTATGCACTCTTTACATGTGCTA | 1.27
TTAGATAGCGGGTTTCGATTAGTGCTA | 5.43
TACGATTCCAGTTTCGAGACGTGCTAG | 3.6
GACGGTTTCGGCCTGGGGACGTGCTAG | 8.77
TGGTGCTTAGTATTTTTTTCCGTGCTA | 0.159
TACTCTCCAGGGTTTCTCTTTGTGCTA | 1.39
GACGGTCTCGGTTTCGGGATGTGCTAG | 6.57
TTATGTATCGGGTTTCGGTTAGTGCTA | 7.25
TTTTCCAGAGGCCCAGCCAGGTGCTAG | 0.0568
GACGGTATCCTCTTCCTGACGTGCTAG | 0.456
GACGATAGCAGTCTCGAGACGTGCTAG | 0.721
CTGGTCTCCGGTGTTTCCTAGTGCTAG | 0.179

Sample 3 — technique: RNA Bind-n-Seq; molecule type: RNA; medium: in vitro; tested at: 200 nM; setting: whole 134-nt RNA, ends assumed; with: 150 mM KCl; relative to: input library; reading: higher = stronger binding
Target: Ras GTPase-activating protein-binding protein 1, full length (G3BP1, Homo sapiens, UniProt Q13283)
Sequence of UniProt Q13283 (whole entry, looked up): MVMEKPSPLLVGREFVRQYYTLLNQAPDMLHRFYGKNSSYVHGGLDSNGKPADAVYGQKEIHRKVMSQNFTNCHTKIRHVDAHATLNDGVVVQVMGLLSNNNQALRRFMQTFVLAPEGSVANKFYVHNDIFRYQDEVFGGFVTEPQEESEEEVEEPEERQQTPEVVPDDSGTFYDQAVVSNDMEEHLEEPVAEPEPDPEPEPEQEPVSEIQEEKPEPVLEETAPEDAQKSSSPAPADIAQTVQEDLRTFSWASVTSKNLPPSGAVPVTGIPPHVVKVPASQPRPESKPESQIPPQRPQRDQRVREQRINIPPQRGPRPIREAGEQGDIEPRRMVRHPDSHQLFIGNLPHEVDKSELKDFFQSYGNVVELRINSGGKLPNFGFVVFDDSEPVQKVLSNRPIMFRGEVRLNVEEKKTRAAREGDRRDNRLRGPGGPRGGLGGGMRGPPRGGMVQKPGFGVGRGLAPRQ
Constant ends, left off below: GGGAGUUCUACAGUCCGACGAUC … UGGAAUUCUCGGGUGUCAAGG
Oligonucleotide | log2 enrichment
GCAGGAAGUAAAAACAAAUGGAAAUGCCUCGGAUAGUGGCAGGGGUGGGGGUUGCUAAGGAAAGGGUGGGAUGGGAGUGGGUAAAGAGUU | 1.12
CCUGUGCUACACAUCGUAUGUACCGAAUCGGAAAAAAGGGAAAAAAGGGGAAAAAAGGGGAAAGUAUUAUGUUACGCCGUUCGGAUCUGC | -0.495
UCCUGUGCUACACAUCGUAUGUACCGAAUCGGGGUUUUUGGGGUUUUUGGGUUUUUGGGAAAGUAUUAUGUUACGCCGUUCGGAUCUGCA | 0.205
CUCAAGUCCUGUGCUACACAUCGUAUGUACCGAAUCGGGCCGGGGCCGGGCCGGAAAGUAUUAUGUUACGCCGUUCGGAUCUGCACUUCC | -0.215
UGUGCUACACAUCGUAUGUACCGAAUCGGGGAAAAAAAGGAAAAAAAGGGGAAAAAAAGGGGAAAGUAUUAUGUUACGCCGUUCGGAUCU | -0.504
UUAGAUGAGUGACCGAGGAGGUGGCGUUCCUUUGAGGAAAAUUGACAGACUUUUCAACUACAUGUAUUCAACUGCACCAAGACCUCGUGU | -0.518
GCAGGAAGUAAAAACAAAUGGAAAUGCUUCGGAUAGUGGCAGGGGUGGGGGUUGCUAAGGAAAGGGUGGGAUGGGAGUGGGUAAAGAGCU | 1.03
CCUCAAGUCCUGUGCUACACAUCGUAUGUACCGAAUCGGAGGAAAGGUUUGGAAAGUAUUAUGUUACGCCGUUCGGAUCUGCACUUCCAG | -0.213
CAAUGGGAAUGGACCAAAGAGUUUCAGGGAAACUCCAGUAUAUUCCAGAGUCAGAUCUAAGCUCCAGGCACGCCUGAAGAUGUGUUGCUA | -0.0499
CAAGUCCUGUGCUACACAUCGUAUGUACCGAAUCGGAAAAAAAGGAAAGGUUUGGAAAGUAUUAUGUUACGCCGUUCGGAUCUGCACUUC | -1.44
UCCUGUGCUACACAUCGUAUGUACCGAAUCGGGGCCCCCCGGGCCCCCCGGCCCCCCGGGAAAGUAUUAUGUUACGCCGUUCGGAUCUGC | -0.0567
ACUGGACCAGAUUGUUGAAAAAGGAAGACCAGCUCCUGGCUUCCAUCAUGGCGAUGGACCGGGAAAUGCAGUUCAAGAAAUCAUGAUUCC | -1
UCCUGUGCUACACAUCGUAUGUACCGAAUCGGGGUUUGGGGUUUUUUUGGGGUUUGGGGAAAGUAUUAUGUUACGCCGUUCGGAUCUGCA | 1.05
UGGCCCUGGGGGCAUGCGGGGAGGAAGAGGUGGCCUCAUGGAUCGUGGUGGUCCCGGUGGAAUGUUCAGAGGUGGCCGUGGUGGAGACAG | 0.143

Sample 4 — technique: RNA Bind-n-Seq; molecule type: RNA; medium: in vitro; tested at: 365 nM; relative to: no-protein control; reading: higher = stronger binding
Target: RNA binding protein fox-1 homolog 2, RRM domain, GST-SBP tag (RBFOX2, Homo sapiens, UniProt O43251-10, residues 100-194)
Setting: natural RNA segment, single round, ends assumed
Constant ends, left off below: GGGAGUUCUACAGUCCGACGAUC … UGGAAUUCUCGGGUGCCAA
Residues (chain): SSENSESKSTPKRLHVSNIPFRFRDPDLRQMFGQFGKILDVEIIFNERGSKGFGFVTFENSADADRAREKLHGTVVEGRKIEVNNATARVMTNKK
Oligonucleotide | RBNS enrichment (R)
CAAGAACAGUCAGUUAGCCCUGCUGUCUUGACUAUGUUGUUUUUAAUCACUGUGACCUCUGAAUUUUCAAGUAUAGGCCAAAUGAGCCAAGUAACUUGGCUGUGAAAUGG | 0.437
AUUAAAAUACAAAGCAGUAAAAUGUCAUUUGCUGUACGAUUAUUAACUAUAAAUCUGGCUAUUUCUUCAUCCAGUAACCUAAAUAUGAUAUAUACUUUAUAUUGGGUAUG | 0.36
UUUAUAAAUCAUUGUUAAUUCAGAGAUUUGUACGUGAGAAAACAACAACAAAAUUAGAGACUAUCUAGUUUCUGUAGGUUAUUUUUCCCAAUAAUGUUUCCAGAUCGAAU | 0.37
CAUUACAAGUGGCCAAAACCCCUGUUCUCAGUGAAGAACCACAUUGGAUUUGUAUUCUGUUCAGUUGUAGUCUACACUGCAGUCUUAUUCCUGGUUCAAACUACCUCUUU | 0.279
AGUACAUCAAAGGAAUGGAUGGUGGACCCUACUAUUCAUGUUUUGAGACAUAAAUGUUCACUUUAAAGCAAUUGCAUAAUAGAUAAAAACCUGAACUUUCAUUGGAUUUU | 0.703
CUGAGCUAGGGGAAGCUCCUGUCCCUGCAUCUGUGGGCUCUACCUCUGGGCCUGCCACCACGCCCCUGGCUAGUGCACCAAGACCUGCUGCUCCUGCCAGCAACCCACCA | 2.66
AUGAGAAGAUAUAUUAAAUGUAGUCAUAGGGGACUGAGGAGCAAGGGUGGCCUUGAAGAGGCCAAAGGAAUGUCCAUUUGCUGAGUUUCCCUUCCUUAUGUCUCCAGUCU | 0.861
AUCUUUUUAAAUAGAGAGCUAUGUAUUUUUCAUGUAAUCUGUGAUUUCAAGAAGAUGAUUGGAGUAUAAGGAUUAUCAUUUUGUUAGGUAGAGUUUCUUUUUUUCUUUUU | 0.517
AUGCUACUGUCUAAGCGCAAAGUCCCUCAUCCUGAAGUAGACUAGAGCCCGGCCACAAAUUCUGAGGAAAAACAAAAACUAAAGGAUGAACGAACGAACGAACGAAUGAA | 0.437
GAGCUCUAGGUGUUUAGGCAGCGUGUGGUGUCUGAGAGGCCAUAGCGCCAUCAUGGGCUGAUUUUUAUUACCAGGUCCCCCAGAAGCAGGUGGGAGGCUCUGCUUCCUGC | 0.172
UUGUCUCUUUUCAACUUAUUUAAAUGACAGCACCUGAGAAGAGGAACCGUUUUACACUGGAUGUUUCUCAUGUAGAACAAGAAAUCUUUCUGGAAUUGAUGUUUACAUGU | 0.845
UCAAAGUACAUGGCCUGAGUUCUCUUCUGCCUCCCACAGCAAAGUUGAGGCUGCACUGUAGAGACACUAGCAAUGGCUUGGGACAGACAGGGUCCAAGUCUAGCCAGCCU | 0.311

For quick reference, copied from above (sample 3):
Oligonucleotide | log2 enrichment
UCCUGUGCUACACAUCGUAUGUACCGAAUCGGGGUUUGGGGUUUUUUUGGGGUUUGGGGAAAGUAUUAUGUUACGCCGUUCGGAUCUGCA | 1.05
GCAGGAAGUAAAAACAAAUGGAAAUGCCUCGGAUAGUGGCAGGGGUGGGGGUUGCUAAGGAAAGGGUGGGAUGGGAGUGGGUAAAGAGUU | 1.12
CCUCAAGUCCUGUGCUACACAUCGUAUGUACCGAAUCGGAGGAAAGGUUUGGAAAGUAUUAUGUUACGCCGUUCGGAUCUGCACUUCCAG | -0.213
